Measured values from different studies.

For `S=C(NCc1ccc2c(c1)OCO2)N1CCN(c2ncnc3c2oc2ccccc23)CC1`, the EC50 was 1.62 µM (HEK293T ATF4-FLuc reporter; ATF4 reporter gene, activator, luciferase reporter).
`COc1cnc2cccc(N3CCc4c(cc(Cn5ccnc5C)cc4-c4cn(C)nc4C(F)(F)F)C3=O)c2c1` gave an EC50 of greater than 30 µM (Calu-1; cell growth, inhibitor; 120 h).
For `O=C(Cc1ccccc1)Nc1nnc(CCSCCc2nnc(NC(=O)Cc3ccccc3)s2)s1`, the EC50 was 4.7 µM (HCC38; cell proliferation, inhibitor, cell counting; 144 h).
With `CO[C@@H]1C[C@@H](C[C@H]2CC[C@H](C)[C@H]([C@@H](C)C(=O)O)O2)O[C@]2(O[C@](C)([C@H]3CC[C@@](C)([C@@H]4O[C@@H]([C@H]5O[C@@](O)(CO)[C@H](C)C[C@@H]5C)C[C@@H]4C)O3)C[C@H]2C)[C@@H]1C` the EC50 was 0.005 µM (human iPSC-derived cardiac fibroblasts, reporter lines; antifibrotic reporter effect; doses, lower, re-examined at).
`CC[C@H](C)[C@H](NC(=O)OCc1ccccc1)C(=O)N[C@@H](CCC(=O)OC(C)(C)C)C(=O)N[C@@H](C)C(=O)N[C@H](C=O)CC(C)C` has an EC50 of 0.0431 µM (HEK293T ATF4-FLuc reporter; ATF4 reporter gene, activator, luciferase reporter).
The EC50 of `C[C@H]1[C@H](OC(=O)CCC(=O)O)O[C@@H]2O[C@@]3(C)CC[C@H]4[C@H](C)CC[C@@H]1[C@@]24OO3` is reported as 2.1 µM (human iPSC-derived cardiac fibroblasts, reporter lines; profibrotic reporter inhibition; 72 h, 7 doses up to 20 µM, added: 5 ng/mL TGF-β1).
`O=C(NCCN1CCCC1)c1cc(-c2ccc(CN3CCOCC3)cc2)nc2ccc(F)cc12` gave an EC50 of 23 µM (MRC-5; cytotoxicity, resazurin).
The EC50 of `CCn1cc(-c2cc(Cn3ccnc3)cc3c2CCN([C@H](c2cc(OC)ccn2)C2CC2)C3=O)c(C(F)(F)F)n1` is reported as 0.0865 µM (Calu-1; cell growth, inhibitor; 120 h).
The inhibition of `CC(C)C(O)C(=O)O` (stereo not shown) is reported as 1.69% (THP-1; pyroptotic LDH release; 2 µM, 40 min, added: LPS then nigericin).
For `Cn1cc(-c2ccc(-c3cncc(Cl)c3N3CCC4(CCNC4=O)CC3)cc2)cn1`, “fold change in expression” read -2.5 (COLO 205; microarray, item: OXTR; concentration not given, 2 h, gene set OTR; relative to: untreated cells).
With `Cc1ncc([N+](=O)[O-])n1CCO` the EC50 was 172 µM (Escherichia coli expressing YfkO_Bs nitroreductase; growth inhibition, substrate, OD600; 4 h).
`CCCCC(CC)CNC(=N)NC(=N)NCCCCCCNC(=N)NC(=N)NCC(CC)CCCC` (stereo not shown) has an inhibition of -36.8% (THP-1; pyroptotic LDH release; 2 µM, 40 min, added: LPS then nigericin).
`O=C(Nc1ccc(-c2ccnc(Nc3ccc(N4CCOCC4)cc3)n2)cc1)C1CCCN1` (stereo not shown) gave an EC50 of 6.53 µM (HEK293T ATF4-FLuc reporter; ATF4 reporter gene, activator, luciferase reporter).
For `NC(=O)c1ccc(-c2nc(-c3ccc4c(c3)OCO4)c(-c3ccccn3)[nH]2)cc1`, the EC50 was 1.5 µM (human iPSC-derived cardiac fibroblasts, reporter lines; profibrotic reporter inhibition; 72 h, 7 doses up to 20 µM, added: 5 ng/mL TGF-β1).
With `O=c1[nH]nnc2c1ncn2[C@@H]1O[C@H](CO)[C@@H](O)[C@H]1O` the EC50 was 1.38 µM (HEK293T ATF4-FLuc reporter; ATF4 reporter gene, activator, luciferase reporter).
For `CC(=O)c1ccc(-c2cccc(NC(=O)CCc3cccc4c3B(O)OC4)c2)cc1`, the EC50 was 0.076 µM (HeLa wild type; transcriptional read-through, RT-qPCR, item: SCARF1 read-through mRNA downstream of RILP; relative to: GAPDH).

Excerpt of the above:
For `CC(=O)c1ccc(-c2cccc(NC(=O)CCc3cccc4c3B(O)OC4)c2)cc1`, the EC50 was 0.076 µM (HeLa wild type; transcriptional read-through, RT-qPCR, item: SCARF1 read-through mRNA downstream of RILP; relative to: GAPDH).
